# Measurements gathered from unrelated publications.
# Every numbered part comes from another study and shows a few of its results, in no order.

# Series 1
# Target: Transcriptional repressor CTCF (CTCF, Homo sapiens, UniProt P49711, residues 1-727, full length assumed)
# UniProt P49711, sequence (whole entry, looked up): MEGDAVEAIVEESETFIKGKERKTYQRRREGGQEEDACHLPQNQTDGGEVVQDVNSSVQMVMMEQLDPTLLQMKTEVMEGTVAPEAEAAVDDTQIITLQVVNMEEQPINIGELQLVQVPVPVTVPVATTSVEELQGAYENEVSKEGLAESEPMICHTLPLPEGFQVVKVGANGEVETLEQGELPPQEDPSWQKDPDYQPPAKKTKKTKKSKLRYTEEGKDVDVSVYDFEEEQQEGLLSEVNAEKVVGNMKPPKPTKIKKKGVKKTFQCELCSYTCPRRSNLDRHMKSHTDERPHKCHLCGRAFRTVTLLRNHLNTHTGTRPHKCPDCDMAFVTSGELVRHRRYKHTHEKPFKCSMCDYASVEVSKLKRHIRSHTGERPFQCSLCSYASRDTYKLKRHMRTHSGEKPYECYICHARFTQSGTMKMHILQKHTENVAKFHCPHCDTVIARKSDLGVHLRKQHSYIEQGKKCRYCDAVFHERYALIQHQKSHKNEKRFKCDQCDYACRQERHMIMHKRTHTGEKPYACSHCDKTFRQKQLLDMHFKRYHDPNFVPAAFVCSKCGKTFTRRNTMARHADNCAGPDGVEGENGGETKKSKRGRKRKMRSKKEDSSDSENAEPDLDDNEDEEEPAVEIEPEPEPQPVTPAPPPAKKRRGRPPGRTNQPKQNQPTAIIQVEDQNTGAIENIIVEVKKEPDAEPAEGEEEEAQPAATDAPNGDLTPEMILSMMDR
# Technique: protein-binding microarray
# Molecule type: double-stranded DNA, one strand shown
# Sample: in vitro
# Concentration: not given
# Notes: k-mer, scored over probes, only values ≥0.25
# Reading: higher = stronger binding
Strand,E-score
CGCAATTA,0.308
AATACACA,0.302
CGCGCCGC,0.372
AAATAACG,0.319
AATGCGCG,0.394
CAACTGTA,0.253
GCGCCCTA,0.27
GCGCCACC,0.444
CGCGCTAA,0.361
ATGTTATA,0.368
ACATATAA,0.378
GTATAAAA,0.3
AATTTAAT,0.279
ATAAAATA,0.37
ACAAAATG,0.283
ACACCTAC,0.259

# Series 2
# Target: Histone acetyltransferase KAT6A, winged helix 2, GST fusion (KAT6A, Homo sapiens, UniProt Q92794, residues 85-181)
# Technique: protein binding microarray
# Molecule type: double-stranded DNA, one strand shown
# Sample: in vitro
# Concentration: not given
# Notes: 8-mer, flanks averaged, mean of 2 arrays, mostly near background
# Baseline: not given
# Reading: higher = stronger binding
# Residues (chain): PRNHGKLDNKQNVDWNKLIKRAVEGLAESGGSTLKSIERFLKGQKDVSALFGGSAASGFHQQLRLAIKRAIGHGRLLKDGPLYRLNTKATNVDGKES
Strand,E-score
AAGGACCC,-0.013
AGCCAGAA,-0.0987
AGCTATGG,-0.102
ATCCCGAG,0.0875
CCTTCTTC,-0.149
GTGCAAAC,0.0484
AATGCCTG,-0.133
AGTAGGAG,-0.103
AAACTTGC,0.0895
CCTGTCCC,0.0311
GTGCACAC,-0.18
AGTTATGA,-0.171
ATGCAATA,-0.0455
ATCTGCAA,0.00024
AGCGTCTG,-0.032
AAGCTTAC,-0.0287
TACTAAAA,0.0813
GGTTTCGA,0.173
CAGGAGGC,0.0134
AGAGACGC,-0.0416
ACACGAAG,0.0144
CGCGCCCG,0.182
GATACCAA,-0.103
GACCCTAC,-0.0707
CGGCCGTA,0.19

# Series 3
# Target: RNA binding protein fox-1 homolog 2, RRM domain, GST-SBP tag (RBFOX2, Homo sapiens, UniProt O43251-10, residues 100-194)
# Technique: RNA Bind-n-Seq
# Molecule type: RNA
# Sample: in vitro
# Concentration: 365 nM
# Notes: natural RNA segment, single round, ends assumed
# Baseline: no-protein control
# Reading: higher = stronger binding
# Constant ends, left off below: GGGAGUUCUACAGUCCGACGAUC … UGGAAUUCUCGGGUGCCAA
# Construct (chain): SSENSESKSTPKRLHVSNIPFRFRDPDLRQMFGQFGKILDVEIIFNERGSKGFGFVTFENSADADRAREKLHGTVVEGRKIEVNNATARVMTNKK
Strand,RBNS enrichment (R)
AAAAAUGACAAUGAAGAGACACUUUGACAUUUCCUACCUUUUGAGGACUUGAUCCUUCUCCAGGAAGAAGGUGCUUUCUGCUUACUGACUUAGGCAAUACACCAAGGGCG,0.378
UGUCAUUUUCUUCAUCGGAUGUGACUAAAAUUUUUCUGGUGUCUUCUGCCCUCUCUUUAAUUUUGCCUCUUGAGGGGUAGCAGAUGUGUCAGUGCAUUUUAUUACUUGCU,0.552
UUUUAGUUAAAUUGAUGCACUACACUUUUGAUGUUUGAAGUUACAAACCUGUAAUUUUUUUGUAAAGGAAAUAAUUGCCAAAUACCUAGGCCCAUUGCUGACGAUUAGUU,0.573
UGCCUUCCUCACCUCUGGAGCAGCAGCUGGCAGGCACAUCUGCCAUUUGUCCUGGAAUUGUCACGGUGCCUUGGUGUCAGCAGCAGUAACUUGGUGCCAAGGCCAAGAGA,0.275
AUUUCCACUGAAGAGCCAAAAGGCAUUUAAUAUAUAUGUUCAUGAAACAUACCUUUUUCCUCUUUAAAAAAAAAGAUAUACUCAUUUUUUUAUUUUAUGUGUAUGACUGU,0.554
CAAAAGAUUUGUGUAUGCAUUGCCUAAUUAGAGUAGGGGGAGAAGGGCAACUAUUAUUAUCCCUAUUUUACAAAACUGAGGCUUAGUGAGGUUCAGCCACAUGCCUAGAC,0.375
GCCUUUUUUUAAAAAACAAAAACCACAAAAAUUCCCAAACCAUACUUGCUAAAAAUUCUGGUAAGUAUGUGCUUUUCUGUGGGGGUGGGAUUUGGAAGGGGGGUUGGGUU,0.54
ACAGCCCGGUGGACCUUCAGCCAAGAAACGCUGACUUCAUUCUCUAUUGCCCCUGCUGAGGGGCUCCUGCCUAAGGAAGACAUGAUAUCCAGUAGACACAAGCAAGAAGA,0.249
UGCGCUAGCCCCUGGCUGAGAGGAGAGAACCUGUCCUCUGCCGGUGCUCAGUCAAGUGAUGGCUCCCUGCCCUUCUGUGCUCCCAGCCUGCCUCCCCCAGGGCAGGUUGG,0.262
CCCAAAAGUCAACCUCAGUCAAAUUAUCCACGCCAGCCACAGCAUACCUUGUUCCUCUAUGUGCCGCUGUGUGCCAGCCCUCAAACAUCUCCUGUAAAGAGAACAGAGGA,0.441
ACAUAUCGCUGACUUCAUGGAAUGGACAUCCUGUAUAAGCACUGAAAAACAACAACACAAUAACACUAAAAUUUUAGGCACUCUUAAAUGAUCUGCCUCUAAAAGCGUUG,0.391
GGCAGCCCCCACCUCCGUCCUGACCCGACGGGGGCCCGGCCCACUGCCUACCCUCGAGUCCCGCAGCCUUAACAGGAUGGGAUCGAGGGUCCCCAUGGGGUGGCUCAGAG,0.159

# Series 4
# Target: Fragile X messenger ribonucleoprotein 1, C-terminal low-complexity region (Fmr1, Mus musculus, UniProt P35922)
# Technique: RNA Bind-n-Seq
# Molecule type: RNA
# Sample: in vitro
# Concentration: 200 nM
# Notes: whole 134-nt RNA, ends assumed
# Added: 150 mM KCl
# Baseline: input library
# Reading: higher = stronger binding
# Constant ends, left off below: GGGAGUUCUACAGUCCGACGAUC … UGGAAUUCUCGGGUGUCAAGG
Strand,log2 enrichment
AAGUCCUGUGCUACACAUCGUAUGUACCGAAUCGGUGGAAAAAAAGGAAAAAAAGGAAAGUAUUAUGUUACGCCGUUCGGAUCUGCACUU,-0.725
ACCAUGCAGGUGGGCAUCUUUGGGAAGUGGGGCAAGGGGGGGAUAGGGAGGGGGGUAACACUUUGGGAACAGGUGGUCCCAGAAAGUUUC,0.586
CAAGUCCUGUGCUACACAUCGUAUGUACCGAAUCGGGGCCCGGGCCCGGGCCCGGAAAGUAUUAUGUUACGCCGUUCGGAUCUGCACUUC,-1.47
UAACUUUAGAGGAGGAUCUGAUGGAUAUGGCAGUGGACGUGGAUUUGGGGAUGGCUAUAAUGGCUAUGGAGGAGGACCUGGAGGUGGCAA,0.216
GUGCUACACAUCGUAUGUACCGAAUCGGGGCCCCCCCGGGGCCCCCCCGGGGCCCCCCCGGGGAAAGUAUUAUGUUACGCCGUUCGGAUC,-2
CUGUGCUACACAUCGUAUGUACCGAAUCGGGGCCCCCCGGGCCCCCCGGGGCCCCCCGGGGAAAGUAUUAUGUUACGCCGUUCGGAUCUG,-1.31
UGGCUGGCUGUGGCCUCACAGCUGAGGACUGCAAGGACCUUGCCUUUGGGCUGAGAGCCAACCAGACCCUGACCGAGCUGGACCUGAGCU,-2.12
CACAGACAACACGCACCCACACAGACACAGAGGGAAGGGGUUGGGAUGGGGACAGGGUGCACAGCAGGGCGGGGUAGGACCCCCGCCCCU,1.38
UCAAGUCCUGUGCUACACAUCGUAUGUACCGAAUCGGAAAGGUUUUUGGUUUGGAAAGUAUUAUGUUACGCCGUUCGGAUCUGCACUUCC,-0.881
UCAAGUCCUGUGCUACACAUCGUAUGUACCGAAUCGGAAAGGAAAAAAAGGUGGAAAGUAUUAUGUUACGCCGUUCGGAUCUGCACUUCC,-0.588

# Further values, each from its own experiment
Molecule,target,assay,system,setting,scale,quantity,result
"PhoQ, residues 284 288 289 292 302 303 GTAMQF","PhoP, residues 12 14 15 18 19 NFCKL (Escherichia coli, UniProt P23836)","Sort-seq, refers to: YFP reporter",E. coli,"PhoQ-PhoP variant library, added: 10 µM Mg2+","baseline: high Mg2+ state, higher = stronger signaling",fold induction,0.672
